Experimental data pooled from the literature.
Numbered parts are unrelated; each lists some results of a single study. Substitutions count along the parent as printed.

Series 1 — technique: RNA Bind-n-Seq; molecule type: RNA; matrix: in vitro; tested at: 200 nM; notes: whole 134-nt RNA, ends assumed; with: 150 mM KCl; relative to: input library; reading: higher = stronger binding; endpoint: log2 enrichment
Target: Fragile X messenger ribonucleoprotein 1, C-terminal low-complexity region (Fmr1, Mus musculus, UniProt P35922)
Shared flanks, not repeated: GGGAGUUCUACAGUCCGACGAUC … UGGAAUUCUCGGGUGUCAAGG
Strand = ACCAUGCAGGUGGGCAUCUUUGGGAAGUGGGGCAAGGGGGGAAAAGGGAGGGGGGUAACACUUUGGGAACAGGUGGUCCCAGGUCGUUUC; value = 0.587
Strand = AAGUCCUGUGCUACACAUCGUAUGUACCGAAUCGGAAAAAAAGGUGGAAAAAAAGGAAAGUAUUAUGUUACGCCGUUCGGAUCUGCACUU; value = -1.05
Strand = CAAGUCCUGUGCUACACAUCGUAUGUACCGAAUCGGGGCCCGGGGCCCGGCCCGGAAAGUAUUAUGUUACGCCGUUCGGAUCUGCACUUC; value = -0.332
Strand = CCUCAAGUCCUGUGCUACACAUCGUAUGUACCGAAUCGGGGUGGGUGGGUGGGAAAGUAUUAUGUUACGCCGUUCGGAUCUGCACUUCCA; value = -0.774
Strand = CAAGUCCUGUGCUACACAUCGUAUGUACCGAAUCGGGUUUUUGGGAAAGGGAGGGAAAGUAUUAUGUUACGCCGUUCGGAUCUGCACUUC; value = 0.945
Strand = CCUGUGCUACACAUCGUAUGUACCGAAUCGGGAAAAAAGGGAAAAAAGGGGAAAAAAGGGAAAGUAUUAUGUUACGCCGUUCGGAUCUGC; value = -0.601
Strand = UGUGCUACACAUCGUAUGUACCGAAUCGGGGAAAAAAAGGGGAAAAAAAGGAAAAAAAGGGGAAAGUAUUAUGUUACGCCGUUCGGAUCU; value = -0.0854
Strand = UCCUGUGCUACACAUCGUAUGUACCGAAUCGGGCCCCCCGGGCCCCCCGGCCCCCCGGGAAAGUAUUAUGUUACGCCGUUCGGAUCUGCA; value = -0.62
Strand = CACAGACAACACGCACCCUCACAGACACAGAGGGAAGGGGUUGGGAUGGGGACAGGGUGCACAGCAGGGCGGGGUAGGACCCCAGCCCCU; value = 1.37

Series 2 — target: CCNA2, cyclin fold, Cln2 fusion (human); technique: yeast growth competition, sequencing; matrix: yeast; notes: strong parent motif; relative to: not given; reading: higher = stronger binding; endpoint: normalised enrichment score
Parent: PKMYT1 docking peptide (human); SFEPRNLLSLFED; partner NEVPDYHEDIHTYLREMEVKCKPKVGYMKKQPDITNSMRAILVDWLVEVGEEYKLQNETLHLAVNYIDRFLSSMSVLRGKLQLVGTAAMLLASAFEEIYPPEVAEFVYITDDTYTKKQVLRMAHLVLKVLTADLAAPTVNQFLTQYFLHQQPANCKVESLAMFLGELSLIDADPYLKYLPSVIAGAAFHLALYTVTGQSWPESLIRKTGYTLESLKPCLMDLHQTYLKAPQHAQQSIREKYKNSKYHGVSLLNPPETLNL
Substitution = SFEIRNLLSLFED [P4I]; value = -1.98
Substitution = SFEPRNLLSRFED [L10R]; value = 2.47
Substitution = SFENRNLLSLFED [P4N]; value = -0.799
Substitution = SFMPRNLLSLFED [E3M]; value = 3.96
Substitution = SFEPRNLLSLLED [F11L]; value = 0.734
Substitution = SFEMRNLLSLFED [P4M]; value = -0.643
Substitution = SFEPRNLLSLVED [F11V]; value = -0.287

Series 3 — technique: protein binding microarray; molecule type: double-stranded DNA, one strand shown; matrix: in vitro; tested at: not given; relative to: not given; reading: higher = stronger binding; endpoint: E-score
Target: Histone acetyltransferase KAT6A, winged helix 2, GST fusion (KAT6A, Homo sapiens, UniProt Q92794, residues 85-181)
Notes: 8-mer, flanks averaged, mean of 2 arrays, mostly near background
Residues (chain): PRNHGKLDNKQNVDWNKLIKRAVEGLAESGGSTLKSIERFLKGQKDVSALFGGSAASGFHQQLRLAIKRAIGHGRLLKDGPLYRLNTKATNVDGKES
Strand = GTCCTTGA; value = -0.0395
Strand = AAACAGTG; value = -0.0407
Strand = AGTAGTAC; value = -0.135
Strand = ACATCGAC; value = -0.0179
Strand = GCGAGAAA; value = 0.0458
Strand = CGCCTCCA; value = 0.0799
Strand = ATTTATTA; value = 0.0205
Strand = AGTGTCTA; value = -0.0297
Strand = GTCAAGCA; value = 0.0979
Strand = TACAGAAA; value = 0.0562
Strand = GCGTCTGA; value = 0.0362
Strand = ACATCACT; value = -0.072

Mixed results
Substance = PhoQ, residues 284 288 289 292 302 303 SLANKL; target = PhoP, residues 12 14 15 18 19 NMSFL (Escherichia coli, UniProt P23836); assay = Sort-seq, item: YFP reporter; test system = E. coli; conditions = PhoQ-PhoP variant library, with: 10 µM Mg2+; scale = relative to: high Mg2+ state, higher = stronger signaling; endpoint = fold induction; value = 5.81

Excerpt of the above (series 2):
Substitution = SFENRNLLSLFED [P4N]; value = -0.799
Substitution = SFMPRNLLSLFED [E3M]; value = 3.96
